Assay results pooled from the literature.
Each line is one published result; not all experiments were run side by side. Several values in a cell are separate wells, animals, samples, runs or records. ± gives the spread as reported.
ampC: Beta-lactamase (ampC, Escherichia coli K-12, UniProt P00811)
Sequence of UniProt P00811 (whole entry, looked up): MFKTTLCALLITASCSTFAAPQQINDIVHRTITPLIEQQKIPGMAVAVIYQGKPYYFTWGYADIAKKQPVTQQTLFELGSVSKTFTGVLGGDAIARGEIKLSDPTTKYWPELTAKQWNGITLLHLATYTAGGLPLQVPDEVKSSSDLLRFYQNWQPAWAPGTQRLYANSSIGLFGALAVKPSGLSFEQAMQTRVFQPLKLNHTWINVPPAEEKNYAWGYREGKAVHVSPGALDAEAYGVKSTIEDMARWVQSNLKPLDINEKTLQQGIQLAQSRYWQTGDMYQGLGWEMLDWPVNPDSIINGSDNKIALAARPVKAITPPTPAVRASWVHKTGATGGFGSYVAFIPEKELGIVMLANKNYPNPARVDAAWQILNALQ
Oprk1: Kappa-type opioid receptor (Oprk1, Rattus norvegicus, UniProt P34975)
Sequence of UniProt P34975 (whole entry, looked up): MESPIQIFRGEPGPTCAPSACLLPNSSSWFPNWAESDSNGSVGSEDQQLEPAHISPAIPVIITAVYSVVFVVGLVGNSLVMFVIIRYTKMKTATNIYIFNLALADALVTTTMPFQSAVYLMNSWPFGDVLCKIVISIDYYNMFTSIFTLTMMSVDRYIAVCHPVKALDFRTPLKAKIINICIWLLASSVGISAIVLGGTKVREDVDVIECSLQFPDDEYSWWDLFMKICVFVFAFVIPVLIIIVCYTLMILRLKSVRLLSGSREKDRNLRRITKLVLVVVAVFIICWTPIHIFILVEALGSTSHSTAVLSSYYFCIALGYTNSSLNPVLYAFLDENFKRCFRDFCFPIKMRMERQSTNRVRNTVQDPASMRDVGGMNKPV
ache: Acetylcholinesterase (ache, Electrophorus electricus, UniProt O42275)
Sequence of UniProt O42275 (whole entry, looked up): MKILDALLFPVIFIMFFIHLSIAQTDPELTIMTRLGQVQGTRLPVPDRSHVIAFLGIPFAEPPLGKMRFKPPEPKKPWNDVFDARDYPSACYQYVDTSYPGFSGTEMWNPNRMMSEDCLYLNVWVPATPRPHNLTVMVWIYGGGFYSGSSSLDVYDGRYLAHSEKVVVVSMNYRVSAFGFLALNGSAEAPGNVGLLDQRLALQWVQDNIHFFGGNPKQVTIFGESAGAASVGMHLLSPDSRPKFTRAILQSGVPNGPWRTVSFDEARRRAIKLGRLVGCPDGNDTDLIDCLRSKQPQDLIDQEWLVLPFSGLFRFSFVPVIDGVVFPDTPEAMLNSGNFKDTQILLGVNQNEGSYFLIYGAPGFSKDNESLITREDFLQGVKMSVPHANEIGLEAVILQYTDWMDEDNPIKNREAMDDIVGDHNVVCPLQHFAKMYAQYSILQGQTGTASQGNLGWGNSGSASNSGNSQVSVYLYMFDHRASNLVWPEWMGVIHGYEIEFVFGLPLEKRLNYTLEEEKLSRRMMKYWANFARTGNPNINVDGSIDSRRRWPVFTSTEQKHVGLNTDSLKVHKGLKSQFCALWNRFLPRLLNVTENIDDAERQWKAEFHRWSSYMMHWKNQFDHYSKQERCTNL
Sequence of UniProt O95665 (whole entry, looked up): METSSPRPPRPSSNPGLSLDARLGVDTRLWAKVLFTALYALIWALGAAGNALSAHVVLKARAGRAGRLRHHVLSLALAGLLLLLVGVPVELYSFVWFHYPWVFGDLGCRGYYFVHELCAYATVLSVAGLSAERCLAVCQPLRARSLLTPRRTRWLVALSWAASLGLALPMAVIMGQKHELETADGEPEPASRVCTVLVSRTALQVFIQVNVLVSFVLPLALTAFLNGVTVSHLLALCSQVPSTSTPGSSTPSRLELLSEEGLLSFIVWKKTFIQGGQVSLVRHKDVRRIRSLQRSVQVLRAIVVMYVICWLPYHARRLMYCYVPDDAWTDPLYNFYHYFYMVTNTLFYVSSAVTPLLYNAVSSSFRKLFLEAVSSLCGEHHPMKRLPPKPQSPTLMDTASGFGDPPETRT
Sequence of UniProt Q12908 (whole entry, looked up): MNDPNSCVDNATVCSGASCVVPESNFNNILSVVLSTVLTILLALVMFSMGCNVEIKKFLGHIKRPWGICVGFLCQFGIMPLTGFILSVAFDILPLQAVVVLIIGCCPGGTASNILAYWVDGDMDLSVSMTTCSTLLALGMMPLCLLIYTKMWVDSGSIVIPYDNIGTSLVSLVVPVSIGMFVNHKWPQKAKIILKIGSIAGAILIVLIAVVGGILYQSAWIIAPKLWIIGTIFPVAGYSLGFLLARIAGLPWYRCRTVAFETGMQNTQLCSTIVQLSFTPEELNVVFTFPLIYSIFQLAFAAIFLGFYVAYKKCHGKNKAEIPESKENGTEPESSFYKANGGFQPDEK
Sequence of UniProt Q9UNE7 (whole entry, looked up): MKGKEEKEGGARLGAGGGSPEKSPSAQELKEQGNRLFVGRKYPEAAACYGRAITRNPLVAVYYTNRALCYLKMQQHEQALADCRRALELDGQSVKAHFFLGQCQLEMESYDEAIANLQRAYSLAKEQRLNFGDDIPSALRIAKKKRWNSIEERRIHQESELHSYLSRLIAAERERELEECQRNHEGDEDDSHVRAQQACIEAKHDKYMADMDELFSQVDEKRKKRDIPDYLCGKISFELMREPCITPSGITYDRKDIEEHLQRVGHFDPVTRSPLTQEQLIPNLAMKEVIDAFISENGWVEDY
Sequence of UniProt Q9Y478 (whole entry, looked up): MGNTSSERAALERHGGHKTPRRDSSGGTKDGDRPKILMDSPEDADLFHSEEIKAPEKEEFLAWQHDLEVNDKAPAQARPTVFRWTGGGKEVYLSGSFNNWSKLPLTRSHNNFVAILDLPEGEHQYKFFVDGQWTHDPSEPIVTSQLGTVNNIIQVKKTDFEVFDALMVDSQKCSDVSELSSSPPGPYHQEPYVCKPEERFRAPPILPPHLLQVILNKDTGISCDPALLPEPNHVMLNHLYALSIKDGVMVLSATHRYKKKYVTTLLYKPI
Sequence of UniProt Q13131 (whole entry, looked up): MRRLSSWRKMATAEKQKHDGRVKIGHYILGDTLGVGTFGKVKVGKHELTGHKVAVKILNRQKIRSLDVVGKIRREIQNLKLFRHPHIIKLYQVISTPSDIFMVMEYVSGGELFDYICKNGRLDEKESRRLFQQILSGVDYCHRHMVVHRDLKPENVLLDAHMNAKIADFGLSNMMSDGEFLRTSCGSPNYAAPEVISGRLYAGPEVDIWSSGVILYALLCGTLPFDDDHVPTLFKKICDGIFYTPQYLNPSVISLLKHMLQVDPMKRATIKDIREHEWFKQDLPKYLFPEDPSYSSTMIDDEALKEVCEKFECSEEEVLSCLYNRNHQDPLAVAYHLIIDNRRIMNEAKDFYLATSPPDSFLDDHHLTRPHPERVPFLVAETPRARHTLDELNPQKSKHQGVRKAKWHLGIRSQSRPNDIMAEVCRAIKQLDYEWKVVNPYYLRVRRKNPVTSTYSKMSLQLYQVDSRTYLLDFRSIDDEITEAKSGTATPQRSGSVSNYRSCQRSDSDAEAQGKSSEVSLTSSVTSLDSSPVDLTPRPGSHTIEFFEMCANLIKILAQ
Sequence of UniProt Q9UQB9 (whole entry, looked up): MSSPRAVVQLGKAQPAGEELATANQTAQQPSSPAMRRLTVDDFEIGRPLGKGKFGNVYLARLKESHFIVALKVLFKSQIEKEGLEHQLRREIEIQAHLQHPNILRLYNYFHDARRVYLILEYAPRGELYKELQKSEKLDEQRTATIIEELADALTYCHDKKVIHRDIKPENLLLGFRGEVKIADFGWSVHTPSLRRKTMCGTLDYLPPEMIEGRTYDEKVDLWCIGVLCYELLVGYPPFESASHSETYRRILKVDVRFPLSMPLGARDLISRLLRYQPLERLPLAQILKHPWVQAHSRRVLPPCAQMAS
Sequence of UniProt P81183 (whole entry, unmodified, looked up): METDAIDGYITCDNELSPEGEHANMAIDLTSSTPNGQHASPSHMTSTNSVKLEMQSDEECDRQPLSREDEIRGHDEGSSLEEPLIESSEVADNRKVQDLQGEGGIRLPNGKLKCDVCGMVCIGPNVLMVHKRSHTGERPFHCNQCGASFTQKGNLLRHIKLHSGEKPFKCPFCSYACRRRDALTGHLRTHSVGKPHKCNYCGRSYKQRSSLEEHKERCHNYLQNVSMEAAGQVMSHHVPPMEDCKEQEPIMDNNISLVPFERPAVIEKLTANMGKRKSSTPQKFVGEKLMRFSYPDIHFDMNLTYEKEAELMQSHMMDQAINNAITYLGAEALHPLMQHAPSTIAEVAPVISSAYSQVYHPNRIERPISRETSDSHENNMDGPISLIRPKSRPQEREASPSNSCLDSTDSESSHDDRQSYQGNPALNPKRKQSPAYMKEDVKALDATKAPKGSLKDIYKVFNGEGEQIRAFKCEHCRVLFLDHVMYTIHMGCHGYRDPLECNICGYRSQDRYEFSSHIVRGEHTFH
Sequence of UniProt P15056 (whole entry, looked up): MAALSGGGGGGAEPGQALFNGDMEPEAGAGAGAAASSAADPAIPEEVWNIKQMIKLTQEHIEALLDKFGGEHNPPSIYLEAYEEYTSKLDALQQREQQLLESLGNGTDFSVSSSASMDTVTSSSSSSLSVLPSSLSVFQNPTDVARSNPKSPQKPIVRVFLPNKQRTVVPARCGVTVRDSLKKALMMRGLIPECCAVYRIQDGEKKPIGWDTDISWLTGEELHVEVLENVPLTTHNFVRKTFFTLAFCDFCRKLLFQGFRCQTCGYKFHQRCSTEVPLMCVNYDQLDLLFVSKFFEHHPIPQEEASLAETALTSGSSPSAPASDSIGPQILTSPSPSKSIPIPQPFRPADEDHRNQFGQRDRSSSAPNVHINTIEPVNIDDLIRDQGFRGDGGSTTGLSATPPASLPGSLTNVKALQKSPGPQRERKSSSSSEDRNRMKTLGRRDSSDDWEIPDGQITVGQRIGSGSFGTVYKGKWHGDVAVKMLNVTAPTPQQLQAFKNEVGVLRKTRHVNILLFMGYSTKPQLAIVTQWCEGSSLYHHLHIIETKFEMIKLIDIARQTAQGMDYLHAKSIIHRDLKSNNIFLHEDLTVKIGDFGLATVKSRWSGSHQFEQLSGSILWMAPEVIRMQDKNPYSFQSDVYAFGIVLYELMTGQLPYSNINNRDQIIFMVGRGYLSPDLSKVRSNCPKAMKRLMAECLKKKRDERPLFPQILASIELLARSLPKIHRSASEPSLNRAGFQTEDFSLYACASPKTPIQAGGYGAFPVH

CC[C@H](C)[C@H](NC(=O)[C@H](CCC(N)=O)NC(=O)[C@H](CC(C)C)NC(=O)[C@@H](NC(=O)CNC(=O)[C@H](Cc1ccc(O)cc1)NC(=O)[C@H](CC(=O)O)NC(=O)[C@@H](NC(=O)[C@H](CO)NC(=O)CNC(=O)[C@H](CC(=O)O)NC(=O)[C@@H](NC(=O)[C@H](CC(N)=O)NC(=O)[C@H](CCCNC(=N)N)NC(=O)[C@H](CC(N)=O)NC(=O)[C@@H](NC(=O)[C@H](C)NC(=O)[C@H](CCC(N)=O)NC(=O)[C@@H](NC(=O)[C@H](CC(N)=O)NC(=O)[C@H](Cc1ccccc1)NC(=O)[C@H](CC(N)=O)NC(=O)[C@H](CO)NC(=O)[C@H](CCC(=O)O)NC(=O)[C@H](Cc1ccccc1)NC(=O)[C@H](CCCCN)NC(=O)[C@H](C)NC(=O)[C@H](C)NC(=O)[C@H](CO)NC(=O)[C@@H](NC(=O)[C@H](Cc1c[nH]c2ccccc12)NC(=O)[C@H](CC(N)=O)NC(=O)CNC(=O)[C@H](CC(C)C)NC(=O)[C@H](CO)NC(=O)[C@H](Cc1ccc(O)cc1)NC(=O)CNC(=O)[C@H](CCCNC(=N)N)NC(=O)[C@H](Cc1ccc(O)cc1)NC(=O)[C@H](CC(N)=O)NC(=O)[C@@H](N)CC(=O)O)C(C)C)[C@@H](C)O)[C@@H](C)O)[C@@H](C)O)[C@@H](C)O)[C@@H](C)CC)C(=O)O
Kapp (Periplasmic serine endoprotease DegP (degP, Escherichia coli, UniProt P0C0V0, C83S/C95S/N322C); cage assembly rate, FRET): 7.6 ± 0.5 µM

CC(=O)NC(Cc1ccc(Br)c(Cl)c1)C(=O)N[C@@H](C)C(=O)N1CCC[C@H]1C(=O)N1CCC[C@H]1C(=O)N[C@@H](CCC(=O)O)C(=O)N[C@@H](Cc1c[nH]cn1)C(=O)N[C@@H](CO)C(=O)N[C@H](C(=O)N[C@@H](C)C(N)=O)[C@@H](C)OP(=O)(O)O (stereo partly shown)
inhibition (Serine/threonine-protein kinase B-raf (BRAF, Homo sapiens, UniProt P15056); enzyme activity, inhibitor; 10 µM): 0.16%

C[C@@H](NC(=O)[C@H](Cc1ccccc1)NC(=O)[C@@H](CCCNC(=N)N)NC(=O)[C@H](CCCN)NC(=O)[C@@H]1CNC(=O)c2cc3cc(c2)C(=O)N[C@H](Cc2ccc4ccccc4c2)C(=O)N[C@@H](CO)C(=O)N[C@@H](CC(N)=O)C(=O)N[C@H](Cc2ccc4ccccc4c2)C(=O)N[C@@H](c2ccccc2)C(=O)N[C@@H](CCCCNC3=O)C(=O)N[C@H](Cc2ccccc2)C(=O)N[C@@H](CCC(N)=O)C(=O)N[C@H](CCCNC(=N)N)C(=O)N[C@@H](CCCNC(=N)N)C(=O)N1)C(=O)NCCOCCOCC(=O)NCCOCCOCC(=O)N[C@@H](CCCCNC(=O)c1ccc2c(c1)C(=O)OC21c2ccc(O)cc2Oc2cc(O)ccc21)C(N)=O
binding (E3 ubiquitin-protein ligase Mdm2 (MDM2, Homo sapiens, UniProt Q00987); fluorescence polarization; concentration not given): no binding

CC(C)Oc1ccc(B(O)O)c(F)n1
ligand efficiency (ampC): 0.61

COc1cc(C=O)ccc1OCc1cccc(CO)n1
association rate constant kon (Hemoglobin subunit alpha, with beta chain (HBA1, Homo sapiens, UniProt P69905); binding, cation-exchange HPLC-UV/Vis; 37 °C): 0.05 M⁻¹ s⁻¹

CC(CCC(=O)NC(CCC(=O)Nc1cccnc1)C(=O)O)C1CCC2C3C(O)CC4CC(O)CCC4(C)C3CCC12C (stereo not shown)
normalized Jmax/Kt (Ileal sodium/bile acid cotransporter (SLC10A2, Homo sapiens, UniProt Q12908); transport efficiency, substrate, LC-MS/MS; ASBT-MDCK): 0.281 µM⁻¹

CC(C)P(=[Se])(NP(=[Se])(C(C)C)C(C)C)C(C)C
ΔG of binding (Alpha-amylase (Bacillus subtilis, UniProt P00691); fluorescence quenching; concentration not given, pH 6.8, 304 K): -4.12 kcal/mol

COC(=O)N(C)[C@@H](Cc1ccccc1)C(=O)N[C@@H](Cc1ccccc1)C(=O)N[C@@H](Cc1ccccc1)C(=O)N[C@@H](CCCNC(=N)N)C(=O)N[C@@H](CC(C)C)C(=O)N[C@@H](CCCNC(=N)N)C(=O)N[C@@H](CCCNC(=N)N)C(=O)N[C@H](C)C(=O)N[C@@H](CCCNC(=N)N)C(=O)N1CCC[C@H]1C(=O)N[C@@H](CCCCN)C(N)=O
adenylyl cyclase activity (Oprk1; agonist; CHO cells; 10 µM; relative to: dynorphin A(1-13) amide): 74 ± 13%

CC(C)C[C@H](NC(=O)/C=C/c1ccc(OP(=O)(O)O)cc1)C(=O)N1CCC[C@H]1C(=O)NC/C=C/C(N)=O
affinity reduction (Signal transducer and activator of transcription 3, SH2 domain (STAT3, Homo sapiens, UniProt P40763); fluorescence polarization; concentration not given; relative to: Aba analogue): ~2 fold

Cc1cc(Nc2nc(C[C@@]3(C(=O)O)CCN(Cc4cccc(Cl)c4F)[C@H](C)C3)cc(C)c2F)[nH]n1
phosphorylation inhibition (Aurora kinase C (AURKC, Homo sapiens, UniProt Q9UQB9); Western blot; NCI-H446; up to 2 µM): no inhibition

Cc1cccc(Nc2c3c(nc4ccccc24)CCC(C)C3)n1 (stereo not shown)
inhibition (ache; enzyme activity, inhibitor, Ellman; 100 µM): 15.2%

CS(C)(=O)=Nc1ccc(-c2ccc(-c3nc4cc(O[C@@H]5CO[C@H]6[C@@H]5OC[C@H]6O)[nH]c4cc3F)cc2)cc1
EC150 (PRKAA1/PRKAB1, with gamma3 (Homo sapiens, UniProt Q13131+Q9Y478); enzyme activity, activator; 60 min, 50% above basal activity, together with: ATP 50 µM): 0.398 nM

CC[C@H](C)[C@H](NC(=O)[C@@H](Cc1c[nH]c2ccccc12)NC(=O)[C@@H]1CCCN1C(=O)[C@H](CCCCN)NC(=O)[C@H](CCCCN)NC(=O)CCNC(=O)CCNC(=O)CN1CCN(CC(=O)O)CCN(CC(=O)O)CCN(CC(=O)O)CC1)C(=O)N[C@@H](C[Si](C)(C)C)C(=O)O
efficacy (Neurotensin receptor type 2 (NTSR2, Homo sapiens, UniProt O95665); intracellular calcium mobilization, agonist, calcium imaging; HT-29; relative to: levocabastine maximum response): 90.9% and 91%

C[C@@H](O)[C@H](NC(=O)[C@H]1NC(=O)[C@H]([C@@H](C)O)NC(=O)[C@H](CCCN)NC(=O)[C@@H](Cc2c[nH]c3ccccc23)NC(=O)[C@H](Cc2ccc(O)cc2)NC(=O)[C@@H](NC(=O)[C@H](N)Cc2ccccc2)CSSC1(C)C)C(N)=O
Ki ratio (Mu-type opioid receptor (OPRM1, Homo sapiens, UniProt P35372, C348A/C353A); relative to: OPRM1 over human MOR): 0.06

N=C(N)NCCC[C@@H]1NC(=O)[C@H](CCCNC(=N)N)NC(=O)[C@H](NC(=O)[C@H](Cc2ccccc2)NC(=O)CNC(=O)CNC(=O)[C@H](Cc2ccccc2)NCc2ccccc2)CC(=O)NC[C@@H](C(=O)N[C@@H](CCCNC(=N)N)C(=O)N2CCC[C@H]2C(=O)N[C@@H](CCCCN)C(N)=O)NC1=O
relative affinity (Oprk1; binding; relative to: zyklophin): 1.4

CC[C@H](C)[C@H](NC(=O)[C@H](CCCNC(=N)N)NC(=O)[C@H](CO)NC(=O)[C@@H](NC(=O)[C@H](CC(=O)O)NC(=O)[C@H](CC(=O)O)NC(=O)CCCCCNC(=O)c1ccc2c(c1)C(=O)OC21c2ccc(O)cc2Oc2cc(O)ccc21)[C@@H](C)O)C(=O)N[C@@H](CCC(=O)O)C(=O)N[C@@H](CCC(=O)O)C(=O)N[C@H](C(=O)N[C@@H](CC(=O)O)C(=O)O)C(C)C
affinity increase (E3 ubiquitin-protein ligase CHIP (STUB1, Homo sapiens, UniProt Q9UNE7); fluorescence polarization; pH 7.4; relative to: wild-type Hsp90alpha tracer): ≥ 2 fold

O=c1oc2c(CNCCc3cccc(F)c3)c(O)ccc2c2c1CCC2
propidium displacement (ache; peripheral site binding; 1 µM): 70%

Cn1cc(C(=O)Nc2ccccn2)c2ccccc21
Hill slope (Genome polyprotein, 3C protease (rhinovirus B14, UniProt P03303); protease activity, SAMDI-MS): 1.44

[2H]C([2H])(C)N1CCN(C2=Nc3cc(Cl)ccc3Nc3ccccc32)CC1
Emax (Muscarinic acetylcholine receptor M3 (CHRM3, Homo sapiens, UniProt P20309, A239G/Y149C); calcium signal, agonist, FLIPR; relative to: clozapine N-oxide): 86%

CC1C=CC(C)C(C(=O)O)C1C(=O)O (stereo not shown)
ligand efficiency (ampC): 0.33

Cn1cc(-c2cccc(CN3CCC4(CC3)COc3c4ccc4c3CN([C@H]3CCC(=O)NC3=O)C4=O)c2)cn1
degradation (Ikzf2/Crbn (Mus musculus, UniProt P81183+Q8C7D2, I391V); mouse Crbn I391V, thymus; oral, 100 mg/kg single dose, 6 h): 73%

CCN(Cc1ccccc1)C(=O)CCc1nc(CN2CCN(C(=O)Cc3ccc(OC)c(OC)c3)CC2)no1
V1/2 of activation (Sodium channel protein type 9 subunit alpha (SCN9A, Homo sapiens, UniProt Q15858); whole-cell patch clamp; HEK stable; 10 µM): -38.6 ± 2.11 mV

A few entries again:
COc1cc(C=O)ccc1OCc1cccc(CO)n1
association rate constant kon (Hemoglobin subunit alpha, with beta chain (HBA1, Homo sapiens, UniProt P69905); binding, cation-exchange HPLC-UV/Vis; 37 °C): 0.05 M⁻¹ s⁻¹

CC(CCC(=O)NC(CCC(=O)Nc1cccnc1)C(=O)O)C1CCC2C3C(O)CC4CC(O)CCC4(C)C3CCC12C (stereo not shown)
normalized Jmax/Kt (Ileal sodium/bile acid cotransporter (SLC10A2, Homo sapiens, UniProt Q12908); transport efficiency, substrate, LC-MS/MS; ASBT-MDCK): 0.281 µM⁻¹
